Assay results of several laboratories.
Protocols differ between the studies behind these lines. Several values in a cell are separate wells, animals, samples, runs or records. ± marks the error that the study gave.

| Structure (SMILES) | cell line | assay | test system | setting | scale | endpoint | value |
| --- | --- | --- | --- | --- | --- | --- | --- |
| O=C(O)Cc1ccc(O)cc1 | coculture, Caco-2, THP-1 | ELISA | – | 250 ng/mL, 8 h, together with: LPS, IFNγ, ATP | reference: untreated control | IL-1β level | 4.8 ± 1 fold change |
| Cc1cc(-c2ccccc2)n(-c2nc(-c3ccc(Cl)cc3)c3c(NC(=O)c4ccccc4)nnc-3[nH]2)n1 | SF-268 | SRB | – | 10 µM, NCI60 single-dose screen | reference: untreated | cell growth | 93.2% |
| Cc1nn(-c2nc3ccc(Cl)c(Cl)c3[nH]2)c(O)c1C1OC(=O)c2ccccc21 (stereo not shown) | RAW-ISG | RT-qPCR | – | 5 µM, 312 h, unit not given, together with: HT-DNA | reference: DMSO | IFNB1 mRNA level | 0.545 and 0.686 and 0.694 |
| Cc1ccc(CNC(=O)Cn2cc(CSc3nc4ccccc4[nH]3)nn2)cc1 | MDA-MB-231 | MTT | – | 62.5 ppm | – | viability | 10.6% |
| CN1CCN(c2ccc3[nH]c(-c4ccc5[nH]c(-c6ccc(C(F)(F)F)cc6)nc5c4)nc3c2)CC1 | SF-268 | SRB | – | 10 µM, 48 h | – | growth percent | 70.8% |
| Nc1cc2c3ccccc3ccc2c2ccccc12 | HEK293T ATF4-FLuc reporter | ATF4 reporter gene, activator, luciferase reporter | – | – | – | EC50 | 4.07 µM |
| CCc1c(-c2ccccc2)c(-c2ccccc2)nn1-c1ccccc1-c1cccc(OCC(=O)O)c1 | mouse osteoclasts | RT-qPCR, measured: c-fos | – | 1 µM, unit not given, together with: M-CSF plus RANKL | reference: bone marrow macrophages | mRNA level | 3.12 and 3.18 and 3.2 |
| O=C(/C=C/C=C/C=C/C1CCCCC1)NC1=C[C@@](O)(/C=C/C=C/C=C/C(=O)NC2=C(O)CCC2=O)[C@@H]2O[C@@H]2C1=O | COR-L105 | cell growth, CellTiter-Glo | – | 78 h | – | GI50 | 16.1 µM |
| CC1=C(C)C(=O)C(CCCCCCCCCC[P+](c2ccccc2)(c2ccccc2)c2ccccc2)=CC1=O | HEK293T ATF4-FLuc reporter | ATF4 reporter gene, activator, luciferase reporter | – | – | – | EC50 | 0.374 µM |
| Cn1c(Nc2nc3ccc(C(F)(F)F)cc3s2)nc2cc(C(=O)NCCOCCO)ccc21 | SH-SY5Y | RNA-seq, measured: SPRY1 mRNA | – | 5 µM, 5 h | reference: untreated cells | fold change | 3.34 |
| COc1cc(/C=C/C(=O)N2CCC=CC2=O)cc(OC)c1OC | MDA-MB-468 | quantitative RT-PCR, measured: OSM-R | – | 30 µM, 8 h | reference: untreated | mRNA level | 86.6 ± 10.4% |
| CC(C)(C)OC(=O)N1CCC(CNC(=O)c2cnc(Nc3cccc(Cl)c3)nc2C(F)(F)F)CC1 | HEK293T ATF4-FLuc reporter | ATF4 reporter gene, activator, luciferase reporter | – | – | – | EC50 | > 9.96 µM |
| CC1=NN(c2ccc(C)c(C)c2)C(=O)/C1=N\Nc1cccc(-c2cccc(C(=O)O)c2)c1O | THP-1 | pyroptotic LDH release | – | 2 µM, 40 min, together with: LPS then nigericin | – | inhibition | 9.33% |
| C[C@H]1[C@@H](O)O[C@@H]2O[C@@]3(C)CC[C@H]4[C@H](C)CC[C@@H]1[C@@]24OO3 | MOLM-13 cells | lysosomal disruption, flow cytometry | – | 5 µM, 24 h | – | LysoTracker Red positive cells | 13.6% |
| CCn1cc(-c2cc(Cn3ccnc3)cc3c2CCN([C@H](c2cc(OC)ccn2)C2CC2)C3=O)c(C(F)(F)F)n1 | COV434 | cell growth, inhibitor | – | 120 h | – | EC50 | > 30 µM |
| CCCC(=O)[O-].[Na+] | Caco-2/THP-1 co-culture | – | – | concentration not given, together with: LPS 100 ng/mL | – | kynurenine level | 115 ± 12.6 % change |
| O=C1c2ccccc2C(=O)c2c1ccc(O)c2O | THP-1 | pyroptotic LDH release | – | 2 µM, 40 min, together with: LPS then nigericin | – | inhibition | -19.1% |
| COc1cnc2cccc(N3CCc4c(cc(Cn5ccnc5C)cc4-c4cn(C)nc4C(F)(F)F)C3=O)c2c1 | COLO792 | cell growth | – | 120 h | – | EC50 | > 30 µM |
| O=C(O)c1cccc(F)c1 | THP-1 | pyroptotic LDH release | – | 2 µM, 40 min, together with: LPS then nigericin | – | inhibition | -4.62% |
| O=C(COP(=O)(O)O)[C@@H](O)[C@H](O)[C@H](O)COP(=O)(O)O | HepG2 PGAM1 knockout | CCK-8 | – | concentration not given | reference: untreated wild type | cell proliferation | 154% and 136% and 156% |
| O=c1c(O)c(-c2ccc(O)cc2)oc2cc(O)cc(O)c12 | Caco-2/THP-1 co-culture | – | – | 0.05 µg/mL, together with: LPS 50 ng/mL | – | kynurenine level | 122 ± 2.3 % change |
| C/C(O)=C(\C#N)C(=O)Nc1ccc(C(F)(F)F)cc1 | THP-1 | pyroptotic LDH release | – | 2 µM, 40 min, together with: LPS then nigericin | – | inhibition | 31.5% |

| Structure (SMILES) | cell line | assay | test system | setting | scale | endpoint | value |
| --- | --- | --- | --- | --- | --- | --- | --- |
| Cn1cc(-c2ccc(-c3cncc(Cl)c3N3CCC4(CCNC4=O)CC3)cc2)cn1 | COLO 205 | gene expression, microarray, measured: BTG2 mRNA | – | concentration not given, 2 h | reference: untreated cells | log2 fold change | 2.51 |
| CCc1cnc(N2CCC(c3nc(COc4ccc(-n5cnnn5)cc4)cs3)CC2)nc1 | HEK-293T | RNA-seq GSEA, measured: HALLMARK_UV_RESPONSE_DN | – | concentration not given | direction not given | normalized enrichment score | 1.44 |
| N#Cc1ccc2c(CN3CCOCC3)cc(-c3ccc([C@H]4CCC(=O)N4)cc3)nc2c1 | THP-1 | decreased, measured: IL6 | – | 10 µM, together with: CML-HSA | reference: vehicle | mRNA level | decreased |
| CCN(CCCCOC(=O)c1ccc(OC)c(OC)c1)C(C)Cc1ccc(OC)cc1 (stereo not shown) | THP-1 | pyroptotic LDH release | – | 2 µM, 40 min, together with: LPS then nigericin | – | inhibition | 28.7% |
| CCn1cc(-c2cc(Cn3ccoc3=N)cc3c2CCN([C@@H](C)c2cc(OC)ccn2)C3=O)c(C(F)(F)F)n1 | SNU-423 | cell growth, inhibitor | – | 120 h | – | EC50 | > 30 µM |
| CC1(C)COc2ccc(F)cc2CN2c3nc4c(cnn4cc3OC[C@H]2C(F)F)C(=O)N1 | Ba/F3 EML4-ALK variant 1 L1196Q | cell viability | – | – | – | Emax | 98.7% |
| COc1cc(/C=C/C(=O)O)ccc1O | Caco-2/THP-1 co-culture | TEER | – | concentration not given, together with: LPS 100 ng/mL | reference: control | transepithelial electrical resistance | 73.6 ± 5.7% |
| CC(=O)Nc1cccc(-n2c(=O)n(C3CC3)c(=O)c3c(Nc4ccc(I)cc4F)n(C)c(=O)c(C)c32)c1 | LoVo (KRAS G13D) | cell viability, resazurin | – | 100.00 nM, 72 h | reference: DMSO | fractional effect | 0.719 and 0.698 |
| C[C@H](CS)C(=O)N1CCC[C@H]1C(=O)O | THP-1 | pyroptotic LDH release | – | 2 µM, 40 min, together with: LPS then nigericin | – | inhibition | -19.9% |
| C[C@H]1[C@H](C)CC[C@]2(C)CC[C@]3(C)C(=CC(=O)[C@@H]4[C@@]5(C)CC[C@@H](O)[C@](C)(C(=O)NCc6cn(-c7cccc(Br)c7)nn6)[C@@H]5CC[C@]43C)[C@H]12 | human PBMCs, ConA-activated | flow cytometry | – | 10 µM, 24 h | reference: T cells | CD8- T cells | 40.5% |
| CC(C)(C)NC(=O)c1cncn1C1CCN(c2ccc(-c3nnc(C(F)(F)F)o3)cn2)CC1 | HDMEC | qPCR, measured: TSC22D2 | – | concentration not given, unit not given | reference: DMSO | mRNA level | 1.38 |
| COc1ccc(Oc2cc(NCCC(F)(F)F)c3ncc(-c4ccc(C(=O)NC5CC5)c(C)c4)n3n2)c(F)c1F | HEK293T ATF4-FLuc reporter | ATF4 reporter gene, activator, luciferase reporter | – | – | – | EC50 | 1.71 µM |
| CCCCCCCCCCCCCCCCC(=O)O | THP-1 | pyroptotic LDH release | – | 2 µM, 40 min, together with: LPS then nigericin | – | inhibition | -3.25% |
| Cn1cc(-c2cc3c(N4CCN(c5ncc([C@@](C)(N)c6ccc(F)cc6)cn5)CC4)ncnn3c2)cn1 | HEK293T ATF4-FLuc reporter | ATF4 reporter gene, activator, luciferase reporter | – | – | – | EC50 | 9.19 µM |
| O=C(O)CCC(=O)Nc1ccc(S(=O)(=O)Nc2nccs2)cc1 | THP-1 | pyroptotic LDH release | – | 2 µM, 40 min, together with: LPS then nigericin | – | inhibition | -6.94% |
| Nc1cccc2c1C(=O)N(C1CCC(=O)NC1=O)C2=O (stereo not shown) | MM1.S | XTT | – | 0.4 µM | – | viability | 64% and 49% and 36% |
| O=c1[nH]nc(OCCCc2ccc(Cl)cc2)c(NCc2cccnc2)c1Br | HEK293T ATF4-FLuc reporter | ATF4 reporter gene, activator, luciferase reporter | – | – | – | EC50 | 2.4 µM |
| O=C(O)CCc1cccc(O)c1 | Caco-2/THP-1 co-culture | – | – | concentration not given, together with: LPS 250 ng/mL | – | kynurenine level | 171 ± 13.2 % change |
| CC(C)(c1ccc(O)cc1)c1ccc(O)cc1 | HepG2 spheroids | Hoechst flow cytometry | – | 0.1 µM, 24 h | – | G1 phase cells | 71.8 ± 4.21% |
| CC/C(=N\NC(=O)NCc1cccc(O)c1)c1ccc(O)c(C)c1O | SK-OV-3 | Western blot | 2D culture | 20 µM, 1 h, unit not given | reference: β-actin | YAP protein level | 1.65 ± 0.36 |
| CCNC(=O)[C@H]1C[C@@H](n2cnc3c(N[C@H](CC)Cc4sccc4Cl)ccnc32)[C@H](O)[C@@H]1O | HEK293T ATF4-FLuc reporter | ATF4 reporter gene, activator, luciferase reporter | – | – | – | EC50 | 0.814 µM |

Some of these lines once more:
| Structure (SMILES) | cell line | assay | test system | setting | scale | endpoint | value |
| --- | --- | --- | --- | --- | --- | --- | --- |
| CC1=C(C)C(=O)C(CCCCCCCCCC[P+](c2ccccc2)(c2ccccc2)c2ccccc2)=CC1=O | HEK293T ATF4-FLuc reporter | ATF4 reporter gene, activator, luciferase reporter | – | – | – | EC50 | 0.374 µM |
| CCCC(=O)[O-].[Na+] | Caco-2/THP-1 co-culture | – | – | concentration not given, together with: LPS 100 ng/mL | – | kynurenine level | 115 ± 12.6 % change |
| CCn1cc(-c2cc(Cn3ccnc3)cc3c2CCN([C@H](c2cc(OC)ccn2)C2CC2)C3=O)c(C(F)(F)F)n1 | COV434 | cell growth, inhibitor | – | 120 h | – | EC50 | > 30 µM |
| CCc1cnc(N2CCC(c3nc(COc4ccc(-n5cnnn5)cc4)cs3)CC2)nc1 | HEK-293T | RNA-seq GSEA, measured: HALLMARK_UV_RESPONSE_DN | – | concentration not given | direction not given | normalized enrichment score | 1.44 |
| O=C(/C=C/C=C/C=C/C1CCCCC1)NC1=C[C@@](O)(/C=C/C=C/C=C/C(=O)NC2=C(O)CCC2=O)[C@@H]2O[C@@H]2C1=O | COR-L105 | cell growth, CellTiter-Glo | – | 78 h | – | GI50 | 16.1 µM |
| COc1cc(/C=C/C(=O)O)ccc1O | Caco-2/THP-1 co-culture | TEER | – | concentration not given, together with: LPS 100 ng/mL | reference: control | transepithelial electrical resistance | 73.6 ± 5.7% |
